{"data": "Measurements collected from several papers", "note": "± marks the error that the study gave."}
{"Structure (SMILES)": "CC[C@H](C)C(=O)O[C@H]1C[C@H](O)C=C2C=C[C@H](C)[C@H](CC[C@@H](O)C[C@@H](O)CC(=O)O)[C@H]21", "system": "healthy volunteers, plasma", "conditions": "oral, dose not given, with: 2D regimen", "Cmax": "0.0263 µg/mL"}
{"Structure (SMILES)": "CCCCCOc1ccc(-c2ccc(-c3ccc(C(=O)N[C@H]4C[C@@H](O)[C@@H](O)NC(=O)[C@@H]5[C@@H](O)[C@@H](C)CN5C(=O)[C@H]([C@@H](C)O)NC(=O)[C@H]([C@H](O)[C@@H](O)c5ccc(O)cc5)NC(=O)[C@@H]5C[C@@H](O)CN5C(=O)[C@H]([C@@H](C)O)NC4=O)cc3)cc2)cc1", "system": "human, plasma", "conditions": "intravenous, 3 mg/kg loading", "Cmax": "7.7 µg/mL"}
{"Structure (SMILES)": "O=C1c2c(c3c4ccc(O)cc4n([C@@H]4O[C@H](CO)[C@@H](O)[C@H](O)[C@H]4O)c3c3[nH]c4cc(O)ccc4c23)C(=O)N1NC(CO)CO", "system": "cancer patients, plasma", "conditions": "intravenous infusion, 6 mg/m2, 1 h infusion, cycle 1, with: 5-FU/leucovorin", "Cmax": "0.079 ± 0.0176 µg/mL"}
{"Structure (SMILES)": "CN(C)CCC[C@@]1(c2ccc(F)cc2)OCc2cc(C#N)ccc21", "system": "healthy volunteers, plasma", "conditions": "oral, dose not given, given alone", "Cmax": "0.00919 µg/mL"}
{"Structure (SMILES)": "C=CCNC1=C2C[C@@H](C)C[C@H](OC)[C@H](O)[C@@H](C)/C=C(\\C)[C@H](OC(N)=O)[C@@H](OC)/C=C\\C=C(/C)C(=O)NC(=CC1=O)C2=O", "system": "patients, plasma", "conditions": "intravenous, 200 mg/m2, cycle 1 day 4, with: bortezomib 0.7 mg/m2", "Cmax": "2.79 ± 0.656 µg/mL"}
{"Structure (SMILES)": "CNC(=O)c1ccc(-c2cnn3ccc(C(=O)N(C)c4ccc(Cl)c(C(=O)OC)c4)cc23)cc1", "system": "neonatal calf, infected, with diarrhoea, plasma", "conditions": "oral, 10 mg/kg, day 1", "Cmax": "0.021 µM"}
{"Structure (SMILES)": "CC(C)c1nc(N(C)S(C)(=O)=O)nc(-c2ccc(F)cc2)c1/C=C/[C@@H](O)C[C@@H](O)CC(=O)O", "system": "healthy volunteers, plasma", "conditions": "oral, dose not given, with: 2D regimen", "Cmax": "0.00609 µg/mL"}
{"Structure (SMILES)": "Cc1ncc2n1-c1ccc(Cl)cc1C(c1ccccc1F)=NC2", "system": "healthy volunteers, plasma", "conditions": "oral, 8 mg, CYP3A probe, before Echinacea, geometric mean", "Cmax": "0.05 µg/mL"}
{"Structure (SMILES)": "CC[C@H](C)[C@H](NC(=O)[C@@H](N)CCCNC(=N)N)C(=O)N[C@H](C(=O)N1CCC[C@H]1C(=O)N[C@@H](C)C(N)=O)C(C)C", "system": "healthy volunteers, both sexes, plasma", "conditions": "intravenous infusion, 3.0 mg/kg daily, day 7, multiple ascending dose", "Cmax": "13.4 ± 4.43 µg/mL"}
{"Structure (SMILES)": "Cc1cc(=O)[nH]c2c1NC(=O)c1cccnc1N2C1CC1", "system": "olive baboon (Papio anubis), non-pregnant, serum", "conditions": "oral, 10 mg/kg of nevirapine, solution, single dose", "Cmax": "0.00282 ± 0.00103 µg/mL"}
{"Structure (SMILES)": "C[C@H]1O[C@@H](O[C@H]2[C@@H](O)C[C@H](O[C@H]3[C@@H](O)C[C@H](O[C@H]4CC[C@@]5(C)[C@H](CC[C@@H]6[C@@H]5C[C@@H](O)[C@]5(C)[C@@H](C7=CC(=O)OC7)CC[C@]65O)C4)O[C@@H]3C)O[C@@H]2C)C[C@H](O)[C@@H]1O", "system": "healthy volunteers, plasma", "conditions": "oral, dose not given, given alone", "Cmax": "0.00134 µg/mL"}
{"Structure (SMILES)": "CCCCCOc1ccc(-c2cc(-c3ccc(C(=O)N[C@H]4C[C@@H](O)[C@@H](O)NC(=O)[C@@H]5[C@@H](O)[C@@H](C)CN5C(=O)[C@H]([C@H](O)CC(N)=O)NC(=O)[C@H]([C@H](O)[C@@H](O)c5ccc(O)c(OS(=O)(=O)O)c5)NC(=O)[C@@H]5C[C@@H](O)CN5C(=O)[C@H]([C@@H](C)O)NC4=O)cc3)no2)cc1", "system": "young infants at least 1000 g, plasma", "conditions": "intravenous infusion, 7 mg/kg/day, day 4, mean, 1 h infusion, repeat dosing", "Cmax": "26.6 µg/mL"}
{"Structure (SMILES)": "Cc1ncc2n1-c1ccc(Cl)cc1C(c1ccccc1F)=NC2", "system": "healthy men, plasma", "conditions": "oral, 7.5 mg, day 19, arithmetic mean, with: 7 days post amenamevir", "Cmax": "0.0397 µg/mL"}
{"Structure (SMILES)": "Cc1ncc2n1-c1ccc(Cl)cc1C(c1ccccc1F)=NC2", "system": "healthy volunteers, plasma", "conditions": "oral, 7.5 mg single dose, day 1, arithmetic mean, alone", "Cmax": "0.0395 µg/mL"}
{"Structure (SMILES)": "C[C@@H](Oc1cc(-c2cnn(C3CCNCC3)c2)cnc1N)c1c(Cl)ccc(F)c1Cl", "system": "patients", "conditions": "215 mg/m^2, day 14, with dasatinib, median", "Cmax": "0.262 µg/mL"}
{"Structure (SMILES)": "CCCCCOc1ccc(-c2cc(-c3ccc(C(=O)N[C@H]4C[C@@H](O)[C@@H](O)NC(=O)[C@@H]5[C@@H](O)[C@@H](C)CN5C(=O)[C@H]([C@H](O)CC(N)=O)NC(=O)[C@H]([C@H](O)[C@@H](O)c5ccc(O)c(OS(=O)(=O)O)c5)NC(=O)[C@@H]5C[C@@H](O)CN5C(=O)[C@H]([C@@H](C)O)NC4=O)cc3)no2)cc1", "system": "preterm neonates ≥1000 g, plasma", "conditions": "intravenous, 15 mg/kg/day, repeated dosing, mean", "Cmax": "38.2 µg/mL"}
{"Structure (SMILES)": "CC[C@H](C)[C@H](NC(=O)[C@H](CCC(=O)O)NC(=O)[C@H](CCC(=O)O)NC(=O)[C@H](Cc1ccccc1)NC(=O)[C@H](CC(=O)O)NC(=O)CNC(=O)[C@H](CC(N)=O)NC(=O)CNC(=O)CNC(=O)CNC(=O)CNC(=O)[C@@H]1CCCN1C(=O)[C@H](CCCNC(=N)N)NC(=O)[C@@H]1CCCN1C(=O)[C@H](N)Cc1ccccc1)C(=O)N1CCC[C@H]1C(=O)N[C@@H](CCC(=O)O)C(=O)N[C@@H](CCC(=O)O)C(=O)N[C@@H](Cc1ccc(O)cc1)C(=O)N[C@@H](CC(C)C)C(=O)O", "system": "PCI patients, plasma", "conditions": "intravenous, 0.75 mg/kg bolus, 5 to 10 min", "Cmax": "3.2 ± 0.7 µM"}
{"Structure (SMILES)": "Cc1cc(C(C#N)c2ccc(Cl)cc2)c(Cl)cc1NC(=O)c1cc(I)cc(I)c1O (stereo not shown)", "system": "parasitized Corriedale lambs, plasma", "conditions": "subcutaneous, 5 mg/kg, with: moxidectin 0.2 mg/kg subcutaneous", "Cmax": "114 ± 22.1 µg/mL"}
{"Structure (SMILES)": "O=c1[nH]c(Cc2ccccn2)nc2c1cnn2C1CCOCC1", "system": "healthy men, extensive metabolizers, plasma", "conditions": "oral, 5 mg single dose, tablet, geometric mean", "Cmax": "0.0559 µM"}
{"note": "For quick reference, copied from above:"}
{"Structure (SMILES)": "CCCCCOc1ccc(-c2cc(-c3ccc(C(=O)N[C@H]4C[C@@H](O)[C@@H](O)NC(=O)[C@@H]5[C@@H](O)[C@@H](C)CN5C(=O)[C@H]([C@H](O)CC(N)=O)NC(=O)[C@H]([C@H](O)[C@@H](O)c5ccc(O)c(OS(=O)(=O)O)c5)NC(=O)[C@@H]5C[C@@H](O)CN5C(=O)[C@H]([C@@H](C)O)NC4=O)cc3)no2)cc1", "system": "young infants at least 1000 g, plasma", "conditions": "intravenous infusion, 7 mg/kg/day, day 4, mean, 1 h infusion, repeat dosing", "Cmax": "26.6 µg/mL"}
{"Structure (SMILES)": "CN(C)CCC[C@@]1(c2ccc(F)cc2)OCc2cc(C#N)ccc21", "system": "healthy volunteers, plasma", "conditions": "oral, dose not given, given alone", "Cmax": "0.00919 µg/mL"}
